Results from different studies.
Each numbered part is a random draw from the data of one study; scales do not carry over between parts. Changes are numbered by the printed parent chain.
UniProt P28221, sequence (whole entry, looked up): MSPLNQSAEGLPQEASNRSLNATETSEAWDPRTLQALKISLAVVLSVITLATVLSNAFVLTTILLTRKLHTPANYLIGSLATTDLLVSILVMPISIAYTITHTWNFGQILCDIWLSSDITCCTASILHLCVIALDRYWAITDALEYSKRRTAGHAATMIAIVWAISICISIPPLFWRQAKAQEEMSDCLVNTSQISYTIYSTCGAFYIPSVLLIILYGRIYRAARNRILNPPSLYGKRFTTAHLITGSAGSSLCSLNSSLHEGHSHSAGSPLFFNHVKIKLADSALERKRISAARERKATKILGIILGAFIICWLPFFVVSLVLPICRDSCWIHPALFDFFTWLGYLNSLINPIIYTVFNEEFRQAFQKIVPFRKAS

Series 1
Target: UBE2D2 UBC core domain (UniProt P62837)
UniProt P62837, sequence (whole entry, looked up): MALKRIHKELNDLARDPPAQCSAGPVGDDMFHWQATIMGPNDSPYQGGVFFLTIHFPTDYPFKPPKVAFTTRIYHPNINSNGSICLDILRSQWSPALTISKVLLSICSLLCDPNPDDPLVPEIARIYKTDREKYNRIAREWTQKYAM
Technique: yeast two-hybrid
Sample: yeast
Setting: mostly zero background
Reference: not given
Direction: higher = stronger interaction
B1: RNF133 RING domain (UniProt Q8WVZ7); chain DEEINPNGDSCVICFERYKPNDIVRILTCKHFFHKNCIDPWILPHGTCPICKCDILKVLGIQ
B2: UBOX5 RING domain (UniProt O94941); chain EQPGSILGPECASCKRVFSPYFKKEPVYQLPCGHLLCRPCLGEKQRSLPMTCTACQRPVASQDVLR
B3: RFWD3 RING domain (UniProt Q6PCD5); chain ASMDEEEGDTCTICLEQWTNAGDHRLSALRCGHLFGYRCISTWLKGQVRKCPQCNKKARHSDIVV
B4: SH3RF1 RING domain (UniProt Q7Z6J0); chain DESALLDLLECPVCLERLDASAKVLPCQHTFCKRCLLGIVGSRNELRCPECRTLVGSGVEEL
B5: ZMIZ2 RING domain (UniProt Q8NF64); chain GTIPGTPGPNGEDGVEQTAIKVSLKCPITFRRIQLPARGHDCRHIQCFDLESYLQLNCERGTWRCPVCNKTALLEGLEVDQYMLGILIYIQNSDYEEITIDPTCSWK
Molecule | lacZ reporter activity
B1 (RNF133 RING domain) | 18000
B2 (UBOX5 RING domain) | 0
B3 (RFWD3 RING domain) | 11300
KETIKKTTKPCPRCHVPVEKNGGCMHMKCPQPQCRLEWCWNCGCEWNRVCMG (PRKN RING domain (UniProt O60260)) | 0
B4 (SH3RF1 RING domain) | 0
PEDRESLKSACVVCLSSFKSCVFLECGHVCSCTECYRALPEPKKCPICRQAITRVIPLY (MUL1 RING domain (UniProt Q969V5)) | 12300
NLSELTPYILCSICKGYLIDATTITECLHTFCKSCIVRHFYYSNRCPKCNIVVHQTQPLY (PCGF6 RING domain (UniProt Q9BYE7)) | 0
B5 (ZMIZ2 RING domain) | 0

Series 2
Target: CCNE2, cyclin fold, Cln2 fusion (human)
Technique: yeast growth competition, sequencing
Sample: yeast
Setting: strong parent motif
Reference: not given
Direction: higher = stronger binding
Parent: viral docking peptide; KGVKRKLFAEDSS; partner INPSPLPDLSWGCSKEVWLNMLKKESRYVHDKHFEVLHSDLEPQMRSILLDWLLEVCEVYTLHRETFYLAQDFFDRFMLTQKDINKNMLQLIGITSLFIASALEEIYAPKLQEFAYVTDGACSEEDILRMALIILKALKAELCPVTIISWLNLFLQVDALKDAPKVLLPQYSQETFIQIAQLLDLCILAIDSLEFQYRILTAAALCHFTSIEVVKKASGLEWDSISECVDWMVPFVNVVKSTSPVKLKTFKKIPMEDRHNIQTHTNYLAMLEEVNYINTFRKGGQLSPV
Substitution | normalised enrichment score
KGHKRKLFAEDSS [V3H] | 3.94
KEVKRKLFAEDSS [G2E] | 5.73
KGVKRELFAEDSS [K6E] | 2.95
KGVKRKLSAEDSS [F8S] | -0.118
KGVKIKLFAEDSS [R5I] | 0.73
KGVKRKLTAEDSS [F8T] | 0.486
KGVKRKLFAQDSS [E10Q] | 5.61
KGEKRKLFAEDSS [V3E] | 0.807

Other studies, line by line
HLA class I histocompatibility antigen, B alpha chain allele B*51:01: HLA class I histocompatibility antigen, B alpha chain, allele B*51:01 (Homo sapiens, UniProt P01889)
Substance | tested on | assay | system | setting | measurement | result
CNC(=N)NCCC[C@H](NC(=O)[C@H](CC(C)C)NC(=O)NNC(=O)[C@H](Cc1ccccc1)NC(=O)[C@H](CO)NC(=O)[C@H](CC(N)=O)NC(=O)[C@@H](Cc1ccncc1)NC(=O)[C@H](N)Cc1ccc(O)cc1)C(=O)N[C@@H](Cc1ccccc1)C(N)=O | 5-hydroxytryptamine receptor 1D (HTR1D, Homo sapiens, UniProt P28221) | ligand displacement, radioligand | – | 10 µM | inhibition | 10.4%
O=C1CCC(N2Cc3c(ccc4c3OCC43CCN(Cc4ccccc4)CC3)C2=O)C(=O)N1 (centres unmarked) | – | – | Caco-2 | 10 µM, 2 h | Papp B→A | 20.8 ×10⁻⁶ cm/s
FPSQQPYL | HLA class I histocompatibility antigen, B alpha chain allele B*51:01 | peptide-MHC binding | peptide | concentration not given | binding | active
NCCCC(O)(P(=O)(O)O)P(=O)(O)O | HEK-293T | – | VSV pseudotyped with VSV-G | 10 µM, 16 h | pseudovirus infection | 137%
COc1ccc(-c2c(Nc3ccccn3)[nH]c3c(C4=CCCCC4)c(-c4ccccc4)nn3c2=O)cc1 | – | – | patients with advanced malignancies | oral, dose not given, treatment-emergent adverse events | AST increased incidence | 15%
CN1[C@@H]2CC[C@H]1C[C@@H](OC(=O)C(CO)c1ccccc1)C2 (some centres unmarked) | HEK-293T | – | VSV pseudotyped with VSV-G | 10 µM, 16 h | pseudovirus infection | 106%
IPCRDVVL | HLA class I histocompatibility antigen, B alpha chain allele B*51:01 | peptide-MHC binding | peptide | concentration not given | binding | inactive

Repeated from above (series 1):
Molecule | lacZ reporter activity
B1 (RNF133 RING domain) | 18000
